Measurements from different studies.
Several values in a cell are separate wells, animals, samples, runs or records.
Target: Homeodomain-interacting protein kinase 3 (HIPK3, Homo sapiens, UniProt Q9H422)
UniProt Q9H422, sequence (whole entry, looked up): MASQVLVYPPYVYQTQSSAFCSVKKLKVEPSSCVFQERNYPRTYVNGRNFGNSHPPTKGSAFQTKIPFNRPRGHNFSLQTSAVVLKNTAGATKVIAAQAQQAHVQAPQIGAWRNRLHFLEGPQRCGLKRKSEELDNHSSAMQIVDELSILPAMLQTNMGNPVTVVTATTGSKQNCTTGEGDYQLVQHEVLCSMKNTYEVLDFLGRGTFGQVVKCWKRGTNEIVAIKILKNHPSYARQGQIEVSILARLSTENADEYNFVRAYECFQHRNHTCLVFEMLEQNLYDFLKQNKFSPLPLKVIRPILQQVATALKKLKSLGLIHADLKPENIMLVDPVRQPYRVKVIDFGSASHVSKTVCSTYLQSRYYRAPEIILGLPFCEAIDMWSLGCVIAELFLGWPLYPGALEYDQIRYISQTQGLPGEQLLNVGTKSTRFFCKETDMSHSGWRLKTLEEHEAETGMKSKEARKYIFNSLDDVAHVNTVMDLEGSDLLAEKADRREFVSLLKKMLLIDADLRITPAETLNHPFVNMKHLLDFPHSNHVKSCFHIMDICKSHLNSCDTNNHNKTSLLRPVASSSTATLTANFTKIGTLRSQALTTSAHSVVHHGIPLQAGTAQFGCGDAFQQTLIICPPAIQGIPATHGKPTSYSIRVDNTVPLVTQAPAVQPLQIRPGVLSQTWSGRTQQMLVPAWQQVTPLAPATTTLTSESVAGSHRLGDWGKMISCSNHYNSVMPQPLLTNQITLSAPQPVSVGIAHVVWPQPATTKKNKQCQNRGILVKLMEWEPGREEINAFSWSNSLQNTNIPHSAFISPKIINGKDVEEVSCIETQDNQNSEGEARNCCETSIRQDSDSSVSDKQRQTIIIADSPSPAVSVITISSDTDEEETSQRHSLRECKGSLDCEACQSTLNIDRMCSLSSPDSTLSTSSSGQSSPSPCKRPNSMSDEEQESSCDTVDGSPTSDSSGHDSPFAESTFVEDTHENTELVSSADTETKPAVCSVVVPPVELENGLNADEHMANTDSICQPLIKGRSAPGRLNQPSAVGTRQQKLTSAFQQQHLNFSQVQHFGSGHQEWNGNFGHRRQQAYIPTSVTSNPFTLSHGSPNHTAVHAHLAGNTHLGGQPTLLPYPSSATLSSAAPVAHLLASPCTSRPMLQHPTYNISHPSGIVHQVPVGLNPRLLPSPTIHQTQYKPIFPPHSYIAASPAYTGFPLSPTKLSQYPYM

CCN1CCN(Cc2ccc(C(=O)Nc3ccc(C)c(NCc4cnc5[nH]ccc5c4OC)c3)cc2C(F)(F)F)CC1 — remaining binding (binding, competition with immobilised ligand; 1 µM): 51%
Cc1cnc2nc1Nc1cccc(c1)COC/C=C/COCc1cc(ccc1OCCN1CCOCC1)N2 — remaining binding (binding; 0.1 µM): 87%
CN1CCN(Cc2ccc(-c3ccc(CO[C@H]4CCC[C@@H]4NC(=O)c4cc(-c5cnn(C)c5)cnc4N)cc3)cc2)CC1 — inhibition (enzyme activity, inhibitor; 0.1 µM): 3%
NC(=O)[C@@H](O)C[C@H]1CCc2sc3ncnc(O[C@H]4CC[C@H](N5CCOCC5)CC4)c3c21 — inhibition (enzyme activity, inhibitor; 10 µM): 1%
C=CC(=O)N1CCc2ccc(-n3c(=O)ccc4cnc5ccc(-c6cnn(C)c6)cc5c43)cc21 — remaining binding (KINOMEscan; 1 µM; reference: DMSO control): 68%
O=C=[N][Ru-4]123([n]4c5ccc(O)cc5c5c6c(c7cc(F)c[n+]1c7c54)C(=O)NC6=O)[S+]1CC[S+]2CC[S+]3CC1 (centres unmarked) — remaining activity (enzyme activity; 100 nM, human enzyme, with: 10 µM ATP; reference: untreated): 91%
Nc1ncc(-c2cc(-c3cnn(CC(F)(F)F)c3)ncc2F)nc1C(=O)NC1CNCC(F)C1 (centres unmarked) — remaining activity (enzyme activity; 1 µM; reference: DMSO control): 99.2%
COCC12C(=O)NC3C4(C(OC)CC1O)C1CC5(O)C(OC)C(O)C(OC(C)=O)(C1C5OC(=O)c1ccccc1)C3(O)C(OC)C24 (centres unmarked) — remaining activity (kinase activity, inhibitor, ProQinase kinase profiling; 25 µM; reference: control): 97% and 94%
COc1c(OCCCN2CCOCC2)ccc2c1N=C(NC(=O)c1cnc(N)nc1)N1CCN=C21 — remaining activity (kinase activity, inhibitor; 1 µM; reference: untreated control): 103%
CNC(=O)C[C@H](Cc1ccc(C#N)cc1)NC(=O)c1cc(-c2ccc(CN[C@H](C)c3ccc(C)cc3)o2)ccc1Cl — activity vs control (enzyme activity, inhibitor; 1 µM): 96%
Cc1cccc(O[C@H]2CCC[C@@H](C(C)CNCc3ccncc3)C2)c1 (relative stereo) — inhibition (enzyme activity, inhibitor; 1 µM): 0%
COc1cc(Nc2nccc(-c3cnn4nc(OC)ccc34)n2)cc(C(F)(F)F)c1 — remaining binding (binding, competition with immobilised ligand; 1 µM): 69%
C=CC(=O)Nc1cccc(-c2cnc3[nH]cc(C(=O)NC(C)(C)C)c3n2)c1 — inhibition (kinase activity; 0.1 µM): 44% and 50%
Cc1ccc(-c2c(/C=C(\C#N)C(=O)NC(C)C)n(CCCO)c3ncnc(N)c23)cc1 — remaining binding (cell-free assay, competition with immobilised ligand; 1 µM): 100%

A few entries again:
NC(=O)[C@@H](O)C[C@H]1CCc2sc3ncnc(O[C@H]4CC[C@H](N5CCOCC5)CC4)c3c21 — inhibition (enzyme activity, inhibitor; 10 µM): 1%
